{"data": "Assay results collected from several papers", "indolicidin": "indolicidin (Bos taurus, UniProt P33046)", "PCSK9": "PCSK9 fragment (Homo sapiens)", "CD8A 22-235": "CD8A fragment (Homo sapiens)", "B1": "UGT1A9 (Homo sapiens, UniProt O60656); chain GKLLVVPMDGSHWFTMRSVVEKLILRGHEVVVVMPEVSWQLGRSLNCTVKTYSTSYTLEDLDREFKAFAHAQWKAQVRSIYSLLMGSYNDIFDLFFSNCRSLFKDKKLVEYLKESSFDAVFLDPFDNCGLIVAKYFSLPSVVFARGILCHYLEEGAQCPAPLSYVPRILLGFSDAMTFKERVRNHIMHLEEHLLCHRFFKNALEIASEILQTPVTEYDLYSHTSIWLLRTDFVLDYPKPVMPNMIFIGGINCHQGKPLPMEFEAYINASGEHGIVVFSLGSMVSEIPEKKAMAIADALGKIPQTVLWRYTGTRPSNLANNTILVKWLPQNDLLGHPMTRAFITHAGSHGVYESICNGVPMVMMPLFGDQMDNAKRMETKGAGVTLNVLEMTSEDLENALKAVINDKSYKENIMRLSSLHKDRPVEPLDLAVFWVEFVMRHKGAPHLRPAAHDLTWYQYHSLDVIGFLLAVVLTVAFITFKCCAYGYRKCLGKKGRVKKAHKSKTH", "note": "Compare with care: the assays were run in different laboratories. ± marks the error that the study gave.", "sequence of UniProt P33046 (whole entry, looked up)": "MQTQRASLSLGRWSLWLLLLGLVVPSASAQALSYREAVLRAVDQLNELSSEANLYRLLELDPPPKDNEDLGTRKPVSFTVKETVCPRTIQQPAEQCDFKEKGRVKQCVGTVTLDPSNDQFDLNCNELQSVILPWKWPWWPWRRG", "sequence of UniProt P19525 (whole entry, looked up)": "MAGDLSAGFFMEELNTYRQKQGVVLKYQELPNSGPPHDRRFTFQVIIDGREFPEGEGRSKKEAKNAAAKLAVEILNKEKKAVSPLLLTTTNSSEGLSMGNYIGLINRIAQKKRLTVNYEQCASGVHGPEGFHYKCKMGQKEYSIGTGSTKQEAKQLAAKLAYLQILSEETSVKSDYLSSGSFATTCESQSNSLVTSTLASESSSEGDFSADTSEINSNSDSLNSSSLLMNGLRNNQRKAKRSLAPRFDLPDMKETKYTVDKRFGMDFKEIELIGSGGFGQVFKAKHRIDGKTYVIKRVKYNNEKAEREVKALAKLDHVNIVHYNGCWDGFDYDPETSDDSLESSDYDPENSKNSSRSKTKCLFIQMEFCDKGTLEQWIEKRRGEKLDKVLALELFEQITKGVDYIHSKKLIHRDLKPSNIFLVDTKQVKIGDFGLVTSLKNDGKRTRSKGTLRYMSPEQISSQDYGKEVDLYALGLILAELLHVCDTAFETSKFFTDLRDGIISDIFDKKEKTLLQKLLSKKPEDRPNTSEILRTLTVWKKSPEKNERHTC", "sequence of UniProt P16422 (whole entry, looked up)": "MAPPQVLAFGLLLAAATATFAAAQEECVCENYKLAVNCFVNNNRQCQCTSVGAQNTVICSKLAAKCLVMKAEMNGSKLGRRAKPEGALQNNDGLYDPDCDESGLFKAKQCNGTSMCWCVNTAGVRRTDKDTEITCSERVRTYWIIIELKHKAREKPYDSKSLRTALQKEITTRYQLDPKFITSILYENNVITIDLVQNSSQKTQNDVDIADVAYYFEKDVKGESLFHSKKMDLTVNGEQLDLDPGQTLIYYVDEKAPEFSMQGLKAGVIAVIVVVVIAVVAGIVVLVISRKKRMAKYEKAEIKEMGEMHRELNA", "sequence of UniProt Q15717 (whole entry, looked up)": "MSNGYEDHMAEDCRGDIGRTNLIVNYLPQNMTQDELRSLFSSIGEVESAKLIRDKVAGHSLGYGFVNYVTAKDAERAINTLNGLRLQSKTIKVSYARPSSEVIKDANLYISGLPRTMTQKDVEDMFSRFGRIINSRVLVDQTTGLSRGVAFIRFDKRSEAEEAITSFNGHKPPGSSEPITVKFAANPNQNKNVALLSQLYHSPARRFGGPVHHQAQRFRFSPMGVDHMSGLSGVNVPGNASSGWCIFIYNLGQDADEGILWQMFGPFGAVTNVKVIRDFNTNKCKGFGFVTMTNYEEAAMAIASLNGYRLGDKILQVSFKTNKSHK", "sequence of UniProt Q8MQJ9 (whole entry, looked up)": "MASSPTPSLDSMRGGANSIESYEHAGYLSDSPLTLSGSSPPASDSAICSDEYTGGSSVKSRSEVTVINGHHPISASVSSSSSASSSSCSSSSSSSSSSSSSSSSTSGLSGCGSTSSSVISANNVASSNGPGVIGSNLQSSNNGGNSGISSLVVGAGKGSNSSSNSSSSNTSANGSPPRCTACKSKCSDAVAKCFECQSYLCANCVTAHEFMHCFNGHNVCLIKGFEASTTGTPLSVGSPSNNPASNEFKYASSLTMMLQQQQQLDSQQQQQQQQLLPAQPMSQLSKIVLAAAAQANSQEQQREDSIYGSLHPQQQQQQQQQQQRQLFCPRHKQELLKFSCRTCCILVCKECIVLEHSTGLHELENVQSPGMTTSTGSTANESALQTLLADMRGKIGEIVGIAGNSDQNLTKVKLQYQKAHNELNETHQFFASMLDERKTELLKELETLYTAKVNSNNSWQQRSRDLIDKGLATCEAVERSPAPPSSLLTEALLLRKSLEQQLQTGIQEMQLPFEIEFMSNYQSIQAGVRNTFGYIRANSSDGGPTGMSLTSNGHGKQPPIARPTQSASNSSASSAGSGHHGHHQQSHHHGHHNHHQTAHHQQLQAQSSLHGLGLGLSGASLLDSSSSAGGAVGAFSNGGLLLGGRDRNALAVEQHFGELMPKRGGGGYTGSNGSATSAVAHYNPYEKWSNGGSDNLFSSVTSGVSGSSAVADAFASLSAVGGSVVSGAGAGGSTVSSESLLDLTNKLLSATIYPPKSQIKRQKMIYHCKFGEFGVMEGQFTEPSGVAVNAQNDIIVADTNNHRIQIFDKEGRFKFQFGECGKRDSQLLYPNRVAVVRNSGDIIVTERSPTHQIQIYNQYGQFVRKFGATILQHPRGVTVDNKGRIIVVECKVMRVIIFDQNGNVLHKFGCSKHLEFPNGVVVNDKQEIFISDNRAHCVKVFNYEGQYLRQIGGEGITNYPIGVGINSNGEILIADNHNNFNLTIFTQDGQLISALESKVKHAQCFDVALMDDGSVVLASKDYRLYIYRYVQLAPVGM"}
{"Molecule": "GGGAGAGGCAAGUCGUUCGGUCGCGUUCGCUGUCGUCGCGUCUUGUAUGCCACUGUACCC / GGGTACAGTGGCATACAAGACGCGACGACAGCGAACGCGACCGAACGACTTGCCTCTCCC (chimeric DNA/RNA duplex; blunt, strand 2 RNA 23-38)", "tested on": "EIF2AK2 1-184 (Homo sapiens, UniProt P19525)", "assay": "ITC", "setting": "20 °C, strong site, two-site fit", "measurement": "Kd", "result": "30 ± 20 nM"}
{"Molecule": "ATUTCATTT (ssDNA; U3-A6 triazole cross-link, internal)", "tested on": "APOBEC3A E72A (Homo sapiens, UniProt P31941)", "assay": "ITC", "measurement": "Kd", "result": "30 ± 6 nM"}
{"Molecule": "GGGAGACCUAGCCUCAUAUAAUCGUUGUCCAGAAUUGUAUAUAUUCGUAGCAUAAGUUUUCCAAACAUUAUUUUGUUGUCGAAAAUUGUACAUAAGCCAAUUAAGCCGCUAAUUCU (ssRNA)", "tested on": "brat 756-1037 (Drosophila melanogaster, UniProt Q8MQJ9)", "assay": "EMSA", "setting": "with tRNA, heparin", "measurement": "Kd", "result": "100 nM"}
{"Molecule": "CGTGTGTGTCCCCACACACACG (DNA hairpin; hairpin, 9 bp stem, CCCC loop)", "tested on": "indolicidin", "assay": "SPR", "measurement": "Kd", "result": "192000 nM"}
{"Molecule": "GCGCGGGGAGGGGAGAGGGGGCGGGAGCGGC (G-quadruplex DNA (Homo sapiens))", "tested on": "BG4 antibody", "assay": "BLI", "setting": "30 °C", "measurement": "Kd", "result": "17.4 ± 0.588 nM"}
{"Molecule": "GGGGAAUCAAAAAUUUAUUUUUUACACGGAAACGAUGCCACAGUUGACUGAACCUGUCUUCUAACAGUAGUUAAUUGCCAGUAUUUCAAACAAGAUUUGAAAUACGAGUUUCCCAGAAUAAUUUAUUUGGACAGGAUAGGAAGUCCGAUUUCUGUGUUGUCUCAAACGAGGCGAUAGAAUUGGGAUGUCGAAGAAAGUCUGCGUUAGAAUUCGAGCUGGGUACC (structured RNA (Saccharomyces cerevisiae); two hairpins)", "tested on": "CBF5/NOP10/GAR1/NHP2 (Saccharomyces cerevisiae)", "assay": "filter binding", "measurement": "Kd", "result": "0.7 ± 0.3 nM"}
{"Molecule": "GAGAACTGTTTTCAGUUCUC (DNA:RNA chimera; hairpin, DNA 1-12, RNA 13-20)", "tested on": "S9.6 scFv (Mus musculus)", "assay": "SPR", "measurement": "Kd", "result": "0.51 ± 0.01 nM"}
{"Molecule": "TGCTACCGTTGTTTACCCTGCCACCTTCTGGAGTCCAGATGTAGGTAG (XNA; side-chain-functionalized nucleotides, stem-loop)", "tested on": "PCSK9", "assay": "SPR", "measurement": "Kd", "result": "3 nM"}
{"Molecule": "CGCGCGCCGCACGUAUCCCUUUUCGCGUCGGCGCGCG (chimeric DNA/RNA; 2'-F C/U in RNA core, 5-methyl-dC, 20 kDa PEG)", "tested on": "EPCAM 24-314 (Homo sapiens, UniProt P16422)", "assay": "flow cytometry", "test system": "HT29", "setting": "not purified", "measurement": "Kd", "result": "51.8 nM"}
{"Molecule": "CGGTGTGGTCGCTGTAATCAGAATTTTUUCUGAUUACAGCGACCACACCG (DNA:RNA chimera; hairpin, DNA 1-27, RNA 28-50)", "tested on": "S9.6 scFv (Mus musculus)", "assay": "SPR", "measurement": "Kd", "result": "0.47 ± 0.08 nM"}
{"Molecule": "DNA 1 TTCAGGTCAGAAGGGTTCTATCTCTGTTGGCCAGAATGTCCCTTTTATTACTGGTCGTGT / DNA 2 ACACGACCAGTAATAAAAGGGACATTCTGG (dsDNA; primer-template, 5' overhang, 5' amino C6 dT)", "tested on": "RFC1/RFC2/RFC3/RFC4/RFC5 RFC1 284-861 (Saccharomyces cerevisiae)", "assay": "fluorescence anisotropy", "test system": "double-stranded DNA", "setting": "with maltose, added: ATPgS 0.5 mM", "measurement": "Kd", "result": "200 ± 31 nM"}
{"Molecule": "ATCCAGAGTGACGCAGCAACAGAGGTGTAGAAGTACACGTGAACAAGCTTGAAATTGTCTCTGACAGAGGTGGACACGGTGGCTTAGT (DNA; intramolecular fold)", "tested on": "CD8A 22-235", "assay": "flow cytometry", "test system": "CD8+ T cells", "setting": "apparent, not purified", "measurement": "Kd", "result": "1.9 ± 0.8 nM"}
{"Molecule": "TGCTACCGTTGTTTACCCTGCCACCTTCTGGAGTCCAGATGTAGGTAG (XNA; phenol pos 9, isopentyl 21, cyclopentyl 24)", "tested on": "PCSK9", "assay": "SPR", "measurement": "Kd", "result": "3.7 nM"}
{"Molecule": "GGACGGAUUUAAUCGCCGUAGAAAAGCAUGUCAAAGCCGGAACCGUCCCGACGACGACGACGACGACGA / TCGTCGTCGTCGTCGTCGTCG (RNA/DNA hybrid; 2'-F-C, 2'-F-U RNA, 21-nt DNA anti-tail)", "tested on": "EGFR fragment (Homo sapiens)", "assay": "flow cytometry", "test system": "HeLa", "setting": "apparent, live cells, not purified", "measurement": "Kd", "result": "19 ± 4 nM"}
{"Molecule": "CUGUGUUUGUAUGUCUUGAAAAGAAUGUCAGUUAUUUAUUGAAAGUCGUCUUUCAUAUUGUAUGGUCAACACGCACGUGUUGACGCUUCCCUUGGACAUUUUGUGUCUAGUUGGUAGGGCAUAAUGCCCUUUUACAUUCUUUAACCCUGUUUCUCCUGGUCUCGUCUCGCUCGGGACAGAGACGUUCAAAGGACUGUUACAAAUGAAGUAAAAAUAAAAG (ssRNA (Mus musculus))", "tested on": "Traf3ip2 fragment (Mus musculus)", "assay": "EMSA", "measurement": "Kd", "result": "50.2 ± 7.8 nM"}
{"Molecule": "GGGAAGGGUUUAAACAGUUUGAAAUAUUCUGUCUUCAUUUCUGUAAUAGUUAAUAUCUGGCUGUCCUUUUUAUAAUGCAAAGUGAGAACUUUCCCUACUGUGUUUGAUAAAUGUUGUCCAGGUUCACUUGCCAAGAAUGUGUUGUCUAAAAUG (ssRNA)", "tested on": "ELAVL1 full length assumed (Homo sapiens, UniProt Q15717)", "assay": "SPR", "measurement": "Kd", "result": "132 nM"}
{"Molecule": "CATATATATCCCCATATATATG (DNA hairpin; hairpin, 9 bp stem, CCCC loop)", "tested on": "indolicidin", "assay": "SPR", "measurement": "Kd", "result": "39800 nM"}
{"Molecule": "CGATGTCATCG (dsDNA; blunt, O6-dG interstrand cross-link, 4-carbon)", "tested on": "MGMT full length assumed C145S (Homo sapiens, UniProt P16455)", "assay": "EMSA", "test system": "double-stranded DNA, one strand shown", "setting": "monomeric Kd", "measurement": "Kd", "result": "9870 ± 1220 nM"}
{"Molecule": "GGGGAAUCAAAAAUUUAUUUUUUACACGGAAACGAUGCCACAGUUGACUGAACCUGUCUUCUAACAGUAGUUAAUUGCCAGUAUUUCAAACAAGAUUUGAAAUACGAGUUUCCCAGAAUAAUUUAUUUGGACAGGAUAGGAAGUCCGAUUUCUGUGUUGUCUCAAACGAGGCGAUAGAAUUGGGAUGUCGAAGAAAGUCUACAUUAGAAUUCGAGCU (structured RNA (Saccharomyces cerevisiae); two hairpins)", "tested on": "CBF5/NOP10/GAR1 (Saccharomyces cerevisiae)", "assay": "filter binding", "measurement": "Kd", "result": "0.3 ± 0.1 nM"}
{"Molecule": "ATCCAGAGTGACGCAGCAGCTCGATCGTATAGCCGTGACGCAGCTTGAAATGGGATCGCGTCCACAGTTTTGGACACGGTGGCTTAGT (DNA; intramolecular fold)", "tested on": "CD8A 22-235", "assay": "flow cytometry", "test system": "CD8+ T cells", "setting": "apparent, not purified", "measurement": "Kd", "result": "2.4 ± 0.9 nM"}
{"Molecule": "CGGTGTGAATCAGACTTTTGUCUGAUUCACACCG (DNA:RNA chimera; hairpin, DNA 1-19, RNA 20-34)", "tested on": "S9.6 scFv (Mus musculus)", "assay": "SPR", "measurement": "Kd", "result": "0.54 ± 0.02 nM"}
{"Molecule": "GAGCGUAUCCGCUCUUUUUUUUUUUUUUUUUUUUUU (structured RNA; hairpin, 3' U20 tail)", "tested on": "PNPT1 46-783 S484A (Homo sapiens, UniProt Q8TCS8)", "assay": "fluorescence polarization", "setting": "Mg2+ 2 mM", "measurement": "Kd", "result": "422 ± 40 nM"}
{"Molecule": "B1 (UGT1A9)", "tested on": "O=c1cc(-c2ccccc2)oc2cc(O)cc(O)c12", "assay": "steady-state kinetics", "setting": "pH 7.4, 37 °C", "measurement": "Vmax", "result": "0.00454 µmol/min/mg"}
{"Molecule": "CCGCCTCCGGGAGAGCTG (dsDNA; blunt)", "tested on": "NR3C1 417-506 K442A (Homo sapiens, UniProt P04150)", "assay": "fluorescence polarization", "test system": "double-stranded DNA, one strand shown", "setting": "one-site fit", "measurement": "Kd", "result": "5140 ± 510 nM"}
{"Molecule": "TGGGGAGGGTGGGGAGAGTGGGGAAGG (G-quadruplex DNA (Homo sapiens))", "tested on": "BG4 scFv", "assay": "SPRi", "setting": "K+ 100 mM", "measurement": "Kd", "result": "246 nM"}
{"Molecule": "GAGUUGAGUUGAGUUGAGUUGAGUUGAGUUGAGUUGAGUUGAGUUGAGUUGAGUU (ssRNA; single strand)", "tested on": "mtrB full length assumed T30I (Bacillus subtilis, UniProt P19466)", "assay": "filter binding", "setting": "added: no tryptophan", "measurement": "Kd", "result": "177 ± 20 nM"}
{"note": "A few entries again:"}
{"Molecule": "CGGTGTGGTCGCTGTAATCAGAATTTTUUCUGAUUACAGCGACCACACCG (DNA:RNA chimera; hairpin, DNA 1-27, RNA 28-50)", "tested on": "S9.6 scFv (Mus musculus)", "assay": "SPR", "measurement": "Kd", "result": "0.47 ± 0.08 nM"}
{"Molecule": "DNA 1 TTCAGGTCAGAAGGGTTCTATCTCTGTTGGCCAGAATGTCCCTTTTATTACTGGTCGTGT / DNA 2 ACACGACCAGTAATAAAAGGGACATTCTGG (dsDNA; primer-template, 5' overhang, 5' amino C6 dT)", "tested on": "RFC1/RFC2/RFC3/RFC4/RFC5 RFC1 284-861 (Saccharomyces cerevisiae)", "assay": "fluorescence anisotropy", "test system": "double-stranded DNA", "setting": "with maltose, added: ATPgS 0.5 mM", "measurement": "Kd", "result": "200 ± 31 nM"}
